Results pooled from the literature.
PRKAA1: 5'-AMP-activated protein kinase catalytic subunit alpha-1 (PRKAA1, Homo sapiens, UniProt Q13131)
PRKAA1 with beta1, gamma1: 5'-AMP-activated protein kinase catalytic subunit alpha-1, with beta1, gamma1 (PRKAA1, Homo sapiens, UniProt Q13131)
PRKAA1 with beta2, gamma2: 5'-AMP-activated protein kinase catalytic subunit alpha-1, with beta2, gamma2 (PRKAA1, Homo sapiens, UniProt Q13131)

| Compound | target | assay | system | conditions | how to read | measurement | result |
| --- | --- | --- | --- | --- | --- | --- | --- |
| Cc1cnc2nc1Nc1cccc(c1)COC/C=C/COCc1cc(ccc1OCCN1CCOCC1)N2 | PRKAA1 | binding, competition with immobilised ligand |  | 0.1 µM |  | remaining binding | 99% |
| CC(C)=CC1OC(C)(C)C2C=C3C(=O)C(Cl)=CC(O)C3C3C(O)C4OC4C(=O)C132 (stereo not shown) | PRKAA1 | cell-free assay, competition with immobilised ligand |  | 10 µM |  | remaining binding | 88% |
| C=CC(=O)Nc1cccc(-c2cnc3[nH]cc(C(=O)NC(C)(C)C)c3n2)c1 | PRKAA1 with beta1, gamma1 | enzyme activity, inhibitor |  | 0.1 µM |  | inhibition | 49% |
| COc1ccc(C(=O)/C=C/c2ccccc2-c2c[nH]c3ccc(C#N)cc23)c(O)c1 | PRKAA1 | enzyme activity, inhibitor |  | 20 µM |  | inhibition | 9% |
| COc1cc(Nc2nc(C)cc(-c3cnn4nc(OC)ccc34)n2)cc(C(F)(F)F)c1 | PRKAA1 | KINOMEscan |  | 1 µM, AMPK-alpha1 | baseline: DMSO | remaining binding | 87% |
| CNC(=O)C[C@H](Cc1ccc(C#N)cc1)NC(=O)c1cc(-c2ccc(CN[C@H](C)c3ccc(C)cc3)o2)ccc1Cl | PRKAA1 | enzyme activity, KinaseProfiler panel |  | 1 µM |  | remaining activity | 89% |
| CNC1C[S+]2CC[S+]3CC[S+](C1)[Ru-4]321([N]=C=S)[n]2c3ccc(OC)cc3c3c4c(c5cc(F)c[n+]1c5c32)C(=O)NC4=O (stereo not shown) | PRKAA1 | KinomeScan |  | 0.1 µM | baseline: untreated | remaining binding | 100% |
| CCCCCC(O)/C=C/C=O (stereo not shown) | PRKAA1 | competitive isoTOP-ABPP | Ramos soluble proteome | 100 µM, with: iodoacetamide probe | baseline: DMSO over compound-treated, higher = stronger cysteine blockade | isoTOP-ABPP competition ratio | 2.4 |
| Cc1cccc(O[C@H]2CCC[C@@H](C(C)CNCc3ccncc3)C2)c1 (relative stereo) | PRKAA1 with beta1, gamma1 | kinome profiling |  | 10 µM |  | inhibition | 5% |
| Nc1ncc2c(n1)-c1c([nH]c3ccc(C4=CCOCC4)cc13)CCC2 | PRKAA1 | binding, competition with immobilised ligand |  | 1 µM |  | remaining binding | 97% |
| CN1CCN(Cc2ccc(-c3ccc(CO[C@H]4CCC[C@@H]4NC(=O)c4cc(-c5cnn(C)c5)cnc4N)cc3)cc2)CC1 | 5'-AMP-activated protein kinase catalytic subunit alpha-1, with beta1, gamma2 (PRKAA1, Homo sapiens, UniProt Q13131) | SelectScreen kinase profiling |  | 0.1 µM |  | inhibition | 4% |
| CNC(=O)C1CCN(c2cc(C)c(F)cc2NC(=O)c2ccc(-c3cc(O)ccc3C)c(C)c2)CC1 | PRKAA1 | binding, competition with immobilised ligand |  | 1 µM |  | remaining binding | 100% |
| C[C@H]1CN(C(=O)c2cn(-c3ccnc(N)n3)c3cc(C#CC4(O)CCCCC4)ccc23)CCN1 | PRKAA1 with beta2, gamma2 | kinase activity, Z'-LYTE |  | 1 µM, with: ATP at apparent Km |  | inhibition | 90% |
| C=CC(=O)N1Cc2nc(-c3cc(-c4cc(Cl)cnc4Cl)c(F)cc3F)n(-c3ccncn3)c2C1 | PRKAA1 with beta2, gamma2 | kinome panel |  | 1 µM |  | inhibition | 5% |
| C=CC(=O)N1CCc2ccc(-n3c(=O)ccc4cnc5ccc(-c6cnn(C)c6)cc5c43)cc21 | PRKAA1 | KINOMEscan |  | 1 µM | baseline: DMSO control | remaining binding | 84% |
| CCn1cc(C(=O)O)c(=O)c2c(N)c(F)c(NC3CCCCC3)cc21 | 5'-AMP-activated protein kinase catalytic subunit alpha-1, with beta2, gamma3 (PRKAA1, Homo sapiens, UniProt Q13131) | kinase activity |  | 0.1 µM, with: ATP at Km |  | inhibition | -1.6% |

For quick reference, copied from above:
| Compound | target | assay | system | conditions | how to read | measurement | result |
| --- | --- | --- | --- | --- | --- | --- | --- |
| C=CC(=O)Nc1cccc(-c2cnc3[nH]cc(C(=O)NC(C)(C)C)c3n2)c1 | PRKAA1 with beta1, gamma1 | enzyme activity, inhibitor |  | 0.1 µM |  | inhibition | 49% |
